Experimental data collected from several papers.
Lines come from different studies, so protocols differ. Numbers after ± are the reported error.
CFTR: Cystic fibrosis transmembrane conductance regulator (CFTR, Homo sapiens, UniProt P13569)
UniProt P13569, sequence (whole entry, unmodified, looked up): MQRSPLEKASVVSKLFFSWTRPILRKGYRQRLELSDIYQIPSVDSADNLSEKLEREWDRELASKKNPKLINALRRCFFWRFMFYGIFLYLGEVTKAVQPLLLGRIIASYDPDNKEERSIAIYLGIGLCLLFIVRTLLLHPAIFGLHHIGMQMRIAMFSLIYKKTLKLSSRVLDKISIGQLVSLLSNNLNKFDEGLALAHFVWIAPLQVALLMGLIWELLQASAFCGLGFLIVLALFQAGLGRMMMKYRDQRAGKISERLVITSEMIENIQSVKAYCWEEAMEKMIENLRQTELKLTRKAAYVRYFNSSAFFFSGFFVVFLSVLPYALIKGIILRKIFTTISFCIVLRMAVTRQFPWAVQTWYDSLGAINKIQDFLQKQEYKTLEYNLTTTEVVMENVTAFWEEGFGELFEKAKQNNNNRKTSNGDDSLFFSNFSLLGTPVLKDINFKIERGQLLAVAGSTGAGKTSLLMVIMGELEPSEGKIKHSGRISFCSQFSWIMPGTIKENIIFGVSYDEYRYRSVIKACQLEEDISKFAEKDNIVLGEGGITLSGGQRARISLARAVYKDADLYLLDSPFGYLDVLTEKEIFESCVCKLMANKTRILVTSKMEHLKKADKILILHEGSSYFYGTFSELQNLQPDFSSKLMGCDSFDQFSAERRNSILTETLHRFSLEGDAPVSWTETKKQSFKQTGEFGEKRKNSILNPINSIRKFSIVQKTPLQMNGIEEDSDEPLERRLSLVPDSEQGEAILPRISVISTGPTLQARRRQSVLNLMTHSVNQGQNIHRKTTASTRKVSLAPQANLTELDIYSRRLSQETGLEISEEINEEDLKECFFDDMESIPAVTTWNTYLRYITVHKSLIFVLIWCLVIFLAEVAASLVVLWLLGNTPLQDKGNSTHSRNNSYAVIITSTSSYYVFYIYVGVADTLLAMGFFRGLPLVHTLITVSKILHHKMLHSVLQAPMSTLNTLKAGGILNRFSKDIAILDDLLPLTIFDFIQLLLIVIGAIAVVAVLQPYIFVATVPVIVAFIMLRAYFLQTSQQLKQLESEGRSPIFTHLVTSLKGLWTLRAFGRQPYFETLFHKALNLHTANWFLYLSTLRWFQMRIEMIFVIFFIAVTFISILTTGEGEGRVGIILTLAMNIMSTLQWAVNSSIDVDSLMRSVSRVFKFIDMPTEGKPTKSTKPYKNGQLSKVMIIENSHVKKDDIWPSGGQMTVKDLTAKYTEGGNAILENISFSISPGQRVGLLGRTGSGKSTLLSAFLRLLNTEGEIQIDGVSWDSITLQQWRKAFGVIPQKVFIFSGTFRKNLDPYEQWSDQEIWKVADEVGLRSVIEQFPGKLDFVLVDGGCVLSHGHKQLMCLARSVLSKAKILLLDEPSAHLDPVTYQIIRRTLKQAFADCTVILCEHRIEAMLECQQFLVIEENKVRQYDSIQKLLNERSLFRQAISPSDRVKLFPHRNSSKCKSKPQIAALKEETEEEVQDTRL
CFTR del508-508: Cystic fibrosis transmembrane conductance regulator (CFTR, Homo sapiens, UniProt P13569, del508-508)

| SMILES | target | assay | test system | conditions | measurement | value |
| --- | --- | --- | --- | --- | --- | --- |
| NCCCc1ccccc1 | CFTR | open probability, activator, inside-out patch clamp |  | -80 mV | EC50 | ~6000 µM |
| Cc1nc(NC(=O)C(C)(C)C)sc1-c1cc(C(=O)NCc2ccccc2)n(Cc2ccccc2)n1 | CFTR del508-508 | iodide influx, corrector, YFP quenching | FRT expressing ΔF508-CFTR and YFP-H148Q/I152L | together with: forskolin 20 µM + genistein 50 µM | EC50 | 0.75 µM |
| CCCCn1cc(S(=O)(=O)Nc2ccc(CC)cc2)c2cccnc21 | CFTR del508-508 | CFTR chloride current, potentiator, short-circuit current | FRT cells expressing CFTR | together with: VX-809 corrected | EC50 | 2.9 ± 0.3 µM |
| Nc1ccc([N+](=O)[O-])cc1-c1nc2ccccc2n(Cc2ccccc2)c1=O | CFTR | ion flux, activator, fluorescence |  |  | EC50 | 0.2 µM |
| COc1ccc(NC(=O)c2cc(-c3sc(NC(=O)C(C)(C)C)nc3C)nn2Cc2cc(Cl)ccc2OC)cc1 | CFTR del508-508 | iodide influx, corrector, YFP quenching | FRT expressing ΔF508-CFTR and YFP-H148Q/I152L | together with: forskolin 20 µM + genistein 50 µM | EC50 | 1 µM |
| N#Cc1ccccc1Cn1c(=O)c(-c2cc(I)ccc2N)nc2ccccc21 | CFTR | ion flux, activator, fluorescence |  |  | EC50 | > 25 µM |
| C=CCn1nc(-c2sc(NC(=O)C(C)(C)C)nc2C)cc1C(=O)Nc1ccc(OC)cc1 | CFTR del508-508 | iodide influx, corrector, YFP quenching | FRT expressing ΔF508-CFTR and YFP-H148Q/I152L | together with: forskolin 20 µM + genistein 50 µM | EC50 | 0.93 µM |
| O=c1c(-c2cc(Br)ccc2NCc2ccccc2)nc2ccccc2n1Cc1ccccc1 | CFTR | channel activation, activator, YFP halide sensor | FRT cells | approximate, together with: 125 nM forskolin | EC50 | ~15 µM |
| O=C1/C(=C/c2ccc(-c3nn[nH]n3)cc2)SC(=S)N1c1cccc(C(F)(F)F)c1 | CFTR | ion current, inhibitor |  |  | IC50 | ~1 µM |

A few entries again:
| SMILES | target | assay | test system | conditions | measurement | value |
| --- | --- | --- | --- | --- | --- | --- |
| Cc1nc(NC(=O)C(C)(C)C)sc1-c1cc(C(=O)NCc2ccccc2)n(Cc2ccccc2)n1 | CFTR del508-508 | iodide influx, corrector, YFP quenching | FRT expressing ΔF508-CFTR and YFP-H148Q/I152L | together with: forskolin 20 µM + genistein 50 µM | EC50 | 0.75 µM |
